Published values of several laboratories.
A part holds a random share of what one study measured.

Study 1 — technique: RNA Bind-n-Seq; form: RNA; medium: in vitro; concentration: not given; relative to: input RNA pool; reading: higher = stronger binding
Target: RING finger protein unkempt homolog, zinc fingers 1-6, GST-SBP tag (UNK, Homo sapiens, UniProt Q9C0B0, residues 30-357)
Setting: RNA with constant flanks, human-mouse chimeric sites, ends assumed
Constant ends, left off below: GGGAGUUCUACAGUCCGACGAUC … CAACAGAGGAUUGAGCAUCA
Target sequence (chain): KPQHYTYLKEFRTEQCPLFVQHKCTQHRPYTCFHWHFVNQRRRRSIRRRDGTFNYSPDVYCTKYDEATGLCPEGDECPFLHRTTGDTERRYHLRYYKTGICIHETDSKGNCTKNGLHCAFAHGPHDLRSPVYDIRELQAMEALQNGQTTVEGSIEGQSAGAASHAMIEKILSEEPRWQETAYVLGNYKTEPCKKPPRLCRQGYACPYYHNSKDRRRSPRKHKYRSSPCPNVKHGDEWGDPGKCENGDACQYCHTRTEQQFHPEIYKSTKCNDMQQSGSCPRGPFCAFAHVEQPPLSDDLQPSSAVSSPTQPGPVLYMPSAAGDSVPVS
Oligonucleotide | bound/input enrichment [ratio]
GACUUUGGGACUGGUCCUCGCAACGCAGCCUUCUAUAGCCCUCAUGGACAUAUAUUAGUGCUGGCUGGAUUUGGAAAUCUGAGGGGACAAAUGGAAGUAUGGGAUGUGAAAAACUACAAG | 0.457
AGCGUUCAGGAAUUCAUGACCUUUACAAGUCAACUGAUUGUGGAACGCUCGGGGAAAGGCAGCAGAGCUUCUGUCAAAGAACAAGAGUAUCUGUGCCAUGUCUACGUCCGGAGCGACAGU | 0.0824
AGAGCCCAGGACGUUGAUGCUACAAAUCCAAAUUACGAAAUUAUGUGUAUGAUCAGAGACUUCAGAGGGAGCUUGGAUUACAGACCCCUAACAACAGCAGAUCCUAUUGAUGAACAUAGG | 0.326
CCAAUCGUGGAGCAGUACUUGAAGACAAAGAAAAAUUCUAAUAAUUUAAUCAUCAAGUACAUUAGCUGCCGCCUGCUGACACUCAUCAUUAUACUGUUGGCAUGUAUCUACCUGGGCUAU | 0.271
CACAGAGCAGCACCUACCCCCUCCUCCUUUCCACACCUGCAAACCCUUUUACUUGGGCUGAAUAUUUAGUGUAAUUACAUCUCAGCUUUGAGGGCUCCCUGUGGCAAUUCCCGGAUUAAA | 0.849
CCCCAAUACCAUUUGCAGGUCUGGAACCUGCAUUCUUUUUUUAAAAAACAUGUAUACAUUUUAGGGCUGUAGAUUUACUUUCCUAUUUUUGUUUUUCAUUGCUGACUUUUGAGCACAGAA | 1.15
UGUAGUUUCUUGAUUUAUCAUUUUUCUUGCUCGGGUUUUUCCUUUAGGAAAAGCCUAAAGAUUAGGUUGUAAGAAAAACAGAAGCCAUGUUUCGAAGACCUGUGUUACAGGUAUUUCGUC | 0.17
UCGGAUGAGGUGCUGGGUCACUUUUCAUAUCCUGAUCCUUCACAGUGGACAGAUGAAGAACUGGGAAUCCCUCCUGAUGACGAGGACUGACACUGUAAACUCUCUGGACGAGUAGGAGCA | 0.702
AUGGAGAAGGAUUCUCUGCCUCGCUUUGUGCGCUCUGAAUUUUAUAAGGAGCUAAUCAAGUAGUCAUCUGGUCAGGCUUCCAAAAGUUGCCCUGUGAGUUGAGUUACAUAAUAACCCGCA | 0.138
UGGCGCCUGCGCUCCCCGUUUUUAAAUUUAAGUGUAUAAGAUGUAUAUACAUGUAUUUACAAUUGAGCUUUUGUUACAUAAUGCUGAAAUGCUACUGGAGAUUAUGAAAAAUGUUUCAAU | 0.246
AUAGAUGAAAUUGAUGUAGAUCAGGAAGGAAUUGCUGAAAUGAUCCUGGAUGAAAAUGCUAUUGCUCAGGUCCCACGCCCUGGCACAUCUUUGAAACUCCCUGGCACUAACCAAACAGGA | 0.468

Study 2 — technique: aptamer microarray, sandwich; form: DNA with 2'F-ANA; medium: in vitro; concentration: 200 nM; added: Cy3 exosite-II aptamer, 400 nM; reading: higher = stronger binding; oligonucleotide: GGTTGGTGTGGTTGG
Target: Prothrombin, mature alpha-thrombin (F2, Homo sapiens, UniProt P00734)
Setting: whole 15-mer aptamer, many near background
Modification | mean fluorescence intensity
2'F-ANA at 1 3 4 5 6 7 9 10 12 14 | 46.5 a.u.
2'F-ANA at 1 2 4 5 6 7 9 | 60.7 a.u.
2'F-ANA at 2 4 6 10 11 14 15 | 61.5 a.u.
2'F-ANA at 1 2 3 4 5 7 8 10 11 14 15 | 48.9 a.u.
2'F-ANA at 3 4 5 6 11 14 15 | 52.8 a.u.
2'F-ANA at 1 3 5 6 7 9 10 11 12 | 49 a.u.
2'F-ANA at 2 4 5 7 9 10 11 13 14 15 | 46.3 a.u.
2'F-ANA at 1 3 4 6 7 8 10 11 13 14 | 53.1 a.u.
2'F-ANA at 5 6 10 11 | 46.9 a.u.
2'F-ANA at 1 3 4 6 8 10 11 | 61.9 a.u.
2'F-ANA at 1 3 6 8 9 10 12 13 14 | 139 a.u.
2'F-ANA at 2 4 10 14 15 | 65.6 a.u.
2'F-ANA at 1 2 3 5 8 10 11 12 13 14 | 48.1 a.u.
2'F-ANA at 1 2 3 11 12 13 14 15 | 89.4 a.u.
2'F-ANA at 1 2 10 11 12 14 15 | 57 a.u.
2'F-ANA at 1 5 10 12 14 15 | 43.4 a.u.
2'F-ANA at 1 2 6 9 11 14 15 | 56.1 a.u.
2'F-ANA at 1 2 5 8 9 13 15 | 49.3 a.u.
2'F-ANA at 1 2 6 8 10 12 14 15 | 62.6 a.u.
2'F-ANA at 6 8 10 12 15 | 202 a.u.
2'F-ANA at 3 4 6 7 11 12 13 14 15 | 299 a.u.
2'F-ANA at 1 3 7 8 9 14 | 101 a.u.
2'F-ANA at 1 4 6 9 10 11 12 13 14 15 | 48.2 a.u.
2'F-ANA at 1 2 4 6 8 9 10 12 15 | 76.4 a.u.
2'F-ANA at 1 2 3 10 11 12 15 | 94.4 a.u.

Study 3 — technique: RNA Bind-n-Seq; form: RNA; medium: in vitro; concentration: 365 nM; relative to: no-protein control; reading: higher = stronger binding
Target: RNA binding protein fox-1 homolog 2, RRM domain, GST-SBP tag (RBFOX2, Homo sapiens, UniProt O43251-10, residues 100-194)
Setting: natural RNA segment, single round, ends assumed
Constant ends, left off below: GGGAGUUCUACAGUCCGACGAUC … UGGAAUUCUCGGGUGCCAA
Residues (chain): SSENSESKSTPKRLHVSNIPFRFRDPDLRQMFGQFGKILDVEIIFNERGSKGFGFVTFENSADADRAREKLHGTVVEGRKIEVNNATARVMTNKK
Oligonucleotide | RBNS enrichment (R)
UGGAGGGUGGGGGGAGCUCAGUGGCAGGGAAUCAGCGGUCCGUGGGGUCGUGGGGACGGGAACAUGUGCCCGACCGCUCCAUCCCCUCCUCCUCCUUAGGAUGCAUAACC | 0.845
AGUAAUGCUUGCUUGCUAAUGAAUGUAUAGGAGACCACAUUGUAAUUGUUCUUAGAUGAUGGAGUCCAUGCAGUUUCUUAGAAAUCGGUCUCAGUGCAUGCUGUGCUUUU | 18.6
CUCGGUCUGUUUCCGACUACAGGCCCCGCUCAUGGGGCUGAGCCACCUAGAGCUGCACAGGGGGCUUUCGGCACUUCCCUGGAACAGUUGUAGGCCUGGCCUUUGCCCAG | 0.153
UUAUUUAAUAAGAGUAAAAAUAUGUGAAUCUGGAUAUAUUUAAAAAAAGAAAUUUGAUGCCCAGAUAAUAUAUUAGGCACUACUGAUUUUUUAGUUAAAUUGAUGCACUA | 0.922
UACUUCUUGGUGACAUAAUAUAACCUUUGAAGUUAAUAUGAAGUGAUGUUUGCUCCAUAAACUCCACAGUCACUGUUUUCACAUUAAACAUGAAAGCAAAGCAAAACAAA | 0.288
CAAUAUUGUAACCCCACUCUAGGCACUUGCCUUUAAACUGUCUCAGCCCUUCAGAAGGGCUCAACUACUGUCCUAUACAAUCAAGUGACUGAAAUUCCUGGGAAGACACU | 0.403
AUGGAAGAAUAUCUGGCAGGCUUACUUUUAGAAGACGACAAAUCGGUAAGGCUUAUUCAUGGUUCAUUGCCAGGAGCAGAUAUGCUUUUGAGAUCACUUUUAUUUUUGAA | 0.57
AUGAAAUUCAAAAUCUUAUUUUCUAAGGUCAGUGUGCAUUUGUUUAGUUUUGAUGCUUUUCAAAUUACAUUAUUUUCCUCCCCUAUGAACAUUGUGGGGAGGGACUCUAA | 0.323
UGUGUUCUCCUCUGUUACUGAUCUGGAAGUGUGGGAACGUGAACUGAAGCUGAUGGGCUGCGAACAUGGACUGAGCUUGUGGUGUGCUUUGCAGGAGAACUUGGAAGCAG | 0.984
UAACUGAAAUCAAUCAAGAUAACUUUAUUCAAAGAGCAGCCCGCUUUGUGUGACUAAAAUGAAACAAGACAGUUGAAUUGUGUGACUUGAAGAUUACCAAUGAUUUUGAG | 0.399
AUUGAUCUCAGAUAAAAACUUGUGGACUUGGCUGACACUCUCCCUUGCCCUGAAAUCUCAAUGUCUAUUCAGUGAUAGUACAAGCACGUAGAUACCACUUAGUAUACUAU | 0.862
UGCUCAGUGUGUUGAUACAGAAAAGCUGUUUUUCCUUGUUUGCAGAAGUUGACCAGACAAAGCAAAUGGAGGGGCACCUCUGUGUACCCUCUUCACCUAAGUGUUUAUAA | 0.249

Study 4 — technique: RNAcompete; form: RNA; medium: in vitro; concentration: 20 nM; setting: 7-mer, probes averaged, single round; relative to: mean of 7-mers; reading: higher = stronger binding
Target: PABPC1L2, full length, GST fusion (mouse, UniProt A0ABA7IW68)
Residues (chain): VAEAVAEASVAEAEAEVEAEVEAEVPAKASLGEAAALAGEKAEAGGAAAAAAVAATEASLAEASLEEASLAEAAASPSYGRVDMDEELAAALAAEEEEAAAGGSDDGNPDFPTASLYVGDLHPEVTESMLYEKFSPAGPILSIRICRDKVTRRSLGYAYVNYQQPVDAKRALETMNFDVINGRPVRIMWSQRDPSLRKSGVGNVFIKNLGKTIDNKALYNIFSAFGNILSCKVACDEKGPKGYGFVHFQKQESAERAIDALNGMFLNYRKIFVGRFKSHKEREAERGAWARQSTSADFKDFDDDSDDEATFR
Oligonucleotide | 7-mer Z-score
ACCAGUA | -0.0953
AGCUAUA | -0.146
UCACCCC | -0.414
AUACGGG | 0.32
UGCGGUU | -0.179
CGGAGGA | 0.294
CUGCUCU | -0.365
AUGGAAG | 0.16
AUGGGAA | 0.119
UCUGCAA | -0.179
GUAAAGC | 0.265
UGAGAGU | -0.0264

Some of these lines once more (study 1):
Oligonucleotide | bound/input enrichment [ratio]
UCGGAUGAGGUGCUGGGUCACUUUUCAUAUCCUGAUCCUUCACAGUGGACAGAUGAAGAACUGGGAAUCCCUCCUGAUGACGAGGACUGACACUGUAAACUCUCUGGACGAGUAGGAGCA | 0.702
GACUUUGGGACUGGUCCUCGCAACGCAGCCUUCUAUAGCCCUCAUGGACAUAUAUUAGUGCUGGCUGGAUUUGGAAAUCUGAGGGGACAAAUGGAAGUAUGGGAUGUGAAAAACUACAAG | 0.457
CCCCAAUACCAUUUGCAGGUCUGGAACCUGCAUUCUUUUUUUAAAAAACAUGUAUACAUUUUAGGGCUGUAGAUUUACUUUCCUAUUUUUGUUUUUCAUUGCUGACUUUUGAGCACAGAA | 1.15
AGCGUUCAGGAAUUCAUGACCUUUACAAGUCAACUGAUUGUGGAACGCUCGGGGAAAGGCAGCAGAGCUUCUGUCAAAGAACAAGAGUAUCUGUGCCAUGUCUACGUCCGGAGCGACAGU | 0.0824
CACAGAGCAGCACCUACCCCCUCCUCCUUUCCACACCUGCAAACCCUUUUACUUGGGCUGAAUAUUUAGUGUAAUUACAUCUCAGCUUUGAGGGCUCCCUGUGGCAAUUCCCGGAUUAAA | 0.849
AUAGAUGAAAUUGAUGUAGAUCAGGAAGGAAUUGCUGAAAUGAUCCUGGAUGAAAAUGCUAUUGCUCAGGUCCCACGCCCUGGCACAUCUUUGAAACUCCCUGGCACUAACCAAACAGGA | 0.468
